Results gathered from unrelated publications.
Protocols differ between the studies behind these lines. Numbers after ± are the reported error.
JAK2: Tyrosine-protein kinase JAK2 (JAK2, Homo sapiens, UniProt O60674)
UniProt O60674, sequence (whole entry, looked up): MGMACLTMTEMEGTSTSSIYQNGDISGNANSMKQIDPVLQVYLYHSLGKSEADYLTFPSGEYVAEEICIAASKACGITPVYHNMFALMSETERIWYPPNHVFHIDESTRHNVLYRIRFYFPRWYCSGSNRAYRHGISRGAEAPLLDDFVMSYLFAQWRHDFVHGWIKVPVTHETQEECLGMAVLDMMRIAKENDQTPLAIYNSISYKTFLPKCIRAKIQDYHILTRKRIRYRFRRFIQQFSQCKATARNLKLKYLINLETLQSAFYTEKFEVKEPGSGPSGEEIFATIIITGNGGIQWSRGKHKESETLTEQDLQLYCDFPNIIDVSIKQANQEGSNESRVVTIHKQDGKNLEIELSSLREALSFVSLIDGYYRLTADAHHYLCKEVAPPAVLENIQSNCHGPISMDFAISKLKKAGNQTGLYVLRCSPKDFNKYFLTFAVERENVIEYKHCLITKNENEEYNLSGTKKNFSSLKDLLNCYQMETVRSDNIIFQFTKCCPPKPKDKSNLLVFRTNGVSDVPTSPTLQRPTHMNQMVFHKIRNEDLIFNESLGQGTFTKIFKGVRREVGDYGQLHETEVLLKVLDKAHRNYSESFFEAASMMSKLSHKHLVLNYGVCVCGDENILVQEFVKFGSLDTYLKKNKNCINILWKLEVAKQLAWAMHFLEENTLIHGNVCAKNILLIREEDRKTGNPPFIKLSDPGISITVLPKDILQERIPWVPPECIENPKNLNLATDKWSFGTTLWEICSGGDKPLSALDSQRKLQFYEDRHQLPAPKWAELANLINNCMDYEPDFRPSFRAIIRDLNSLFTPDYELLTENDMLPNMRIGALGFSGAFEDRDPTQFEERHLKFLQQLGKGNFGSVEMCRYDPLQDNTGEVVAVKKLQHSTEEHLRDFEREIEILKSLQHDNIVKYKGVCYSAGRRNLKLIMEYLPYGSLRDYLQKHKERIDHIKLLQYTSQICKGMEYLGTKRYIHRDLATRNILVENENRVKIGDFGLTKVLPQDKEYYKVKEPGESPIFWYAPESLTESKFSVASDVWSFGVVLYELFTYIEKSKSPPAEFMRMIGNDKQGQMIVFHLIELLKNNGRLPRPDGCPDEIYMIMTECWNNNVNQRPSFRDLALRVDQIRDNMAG
EGLN2: Prolyl hydroxylase EGLN2 (EGLN2, Homo sapiens, UniProt Q96KS0)
UniProt Q96KS0, sequence (whole entry, looked up): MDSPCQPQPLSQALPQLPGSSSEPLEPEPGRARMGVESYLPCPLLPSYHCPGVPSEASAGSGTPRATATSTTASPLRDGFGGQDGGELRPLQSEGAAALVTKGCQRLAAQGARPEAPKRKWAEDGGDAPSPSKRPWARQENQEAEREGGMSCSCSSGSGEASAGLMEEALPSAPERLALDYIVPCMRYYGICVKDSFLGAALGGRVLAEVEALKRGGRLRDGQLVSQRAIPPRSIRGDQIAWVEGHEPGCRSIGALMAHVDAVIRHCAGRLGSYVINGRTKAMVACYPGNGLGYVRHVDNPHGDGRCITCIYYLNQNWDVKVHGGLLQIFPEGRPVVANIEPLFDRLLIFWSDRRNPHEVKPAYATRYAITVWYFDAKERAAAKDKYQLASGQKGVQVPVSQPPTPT
FGFR4: Fibroblast growth factor receptor 4 (FGFR4, Homo sapiens, UniProt P22455)
UniProt P22455, sequence (whole entry, looked up): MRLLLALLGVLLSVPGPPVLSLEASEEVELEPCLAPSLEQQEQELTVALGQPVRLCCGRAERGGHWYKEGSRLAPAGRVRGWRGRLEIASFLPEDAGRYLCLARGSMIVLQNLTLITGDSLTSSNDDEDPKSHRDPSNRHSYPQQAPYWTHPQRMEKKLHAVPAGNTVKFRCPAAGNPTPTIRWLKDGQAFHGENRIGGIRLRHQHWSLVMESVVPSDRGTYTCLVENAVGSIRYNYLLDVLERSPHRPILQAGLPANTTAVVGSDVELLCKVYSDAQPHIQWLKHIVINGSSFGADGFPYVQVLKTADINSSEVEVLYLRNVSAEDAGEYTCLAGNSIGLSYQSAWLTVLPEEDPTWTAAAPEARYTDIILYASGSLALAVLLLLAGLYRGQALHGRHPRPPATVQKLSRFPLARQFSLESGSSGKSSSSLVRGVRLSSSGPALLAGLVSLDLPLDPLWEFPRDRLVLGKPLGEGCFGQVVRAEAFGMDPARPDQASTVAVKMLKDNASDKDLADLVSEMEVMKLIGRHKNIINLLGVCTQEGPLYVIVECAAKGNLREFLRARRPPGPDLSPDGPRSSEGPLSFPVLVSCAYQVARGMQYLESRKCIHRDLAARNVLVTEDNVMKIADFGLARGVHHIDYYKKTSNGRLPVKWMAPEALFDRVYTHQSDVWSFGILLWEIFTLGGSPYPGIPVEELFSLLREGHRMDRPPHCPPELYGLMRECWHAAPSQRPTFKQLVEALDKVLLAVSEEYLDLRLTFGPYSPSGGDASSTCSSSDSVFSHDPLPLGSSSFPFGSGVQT
SEC14: SEC14 (Saccharomyces cerevisiae, UniProt P24280)
UniProt P24280, sequence (whole entry, looked up): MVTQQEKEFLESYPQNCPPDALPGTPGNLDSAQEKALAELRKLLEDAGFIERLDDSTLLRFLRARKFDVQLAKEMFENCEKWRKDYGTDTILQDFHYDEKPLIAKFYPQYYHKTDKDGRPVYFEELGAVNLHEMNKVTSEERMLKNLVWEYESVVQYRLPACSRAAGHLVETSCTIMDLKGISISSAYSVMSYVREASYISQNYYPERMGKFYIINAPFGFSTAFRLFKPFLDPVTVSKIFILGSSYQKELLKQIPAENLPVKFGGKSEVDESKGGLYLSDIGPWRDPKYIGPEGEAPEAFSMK
UniProt C0HJB3, sequence (whole entry, looked up): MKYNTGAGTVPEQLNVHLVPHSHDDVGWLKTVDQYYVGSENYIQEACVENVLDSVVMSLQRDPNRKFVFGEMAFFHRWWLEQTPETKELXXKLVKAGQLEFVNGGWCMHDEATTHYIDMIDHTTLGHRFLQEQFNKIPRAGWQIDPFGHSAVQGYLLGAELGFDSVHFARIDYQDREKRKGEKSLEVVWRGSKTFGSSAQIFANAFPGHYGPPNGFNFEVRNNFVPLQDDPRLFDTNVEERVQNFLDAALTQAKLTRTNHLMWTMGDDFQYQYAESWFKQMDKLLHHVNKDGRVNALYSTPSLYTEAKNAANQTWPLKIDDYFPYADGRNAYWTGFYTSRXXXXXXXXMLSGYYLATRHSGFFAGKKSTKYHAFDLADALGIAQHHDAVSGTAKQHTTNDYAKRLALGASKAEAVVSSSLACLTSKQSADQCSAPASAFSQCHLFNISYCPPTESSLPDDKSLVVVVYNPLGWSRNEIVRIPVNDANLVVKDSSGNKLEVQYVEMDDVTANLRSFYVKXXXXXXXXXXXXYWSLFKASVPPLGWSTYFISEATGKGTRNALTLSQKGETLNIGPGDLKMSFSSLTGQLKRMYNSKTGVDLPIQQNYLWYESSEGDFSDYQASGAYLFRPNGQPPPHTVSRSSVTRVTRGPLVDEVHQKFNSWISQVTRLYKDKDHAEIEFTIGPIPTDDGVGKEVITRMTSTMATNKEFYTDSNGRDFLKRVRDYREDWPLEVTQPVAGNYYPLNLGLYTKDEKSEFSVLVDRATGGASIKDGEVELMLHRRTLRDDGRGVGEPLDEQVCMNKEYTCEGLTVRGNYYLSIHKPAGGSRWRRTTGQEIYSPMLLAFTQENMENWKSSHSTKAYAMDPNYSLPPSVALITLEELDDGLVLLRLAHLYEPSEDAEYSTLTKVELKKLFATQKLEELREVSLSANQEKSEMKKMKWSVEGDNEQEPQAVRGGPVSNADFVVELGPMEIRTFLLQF
UniProt P52699, sequence (whole entry, looked up): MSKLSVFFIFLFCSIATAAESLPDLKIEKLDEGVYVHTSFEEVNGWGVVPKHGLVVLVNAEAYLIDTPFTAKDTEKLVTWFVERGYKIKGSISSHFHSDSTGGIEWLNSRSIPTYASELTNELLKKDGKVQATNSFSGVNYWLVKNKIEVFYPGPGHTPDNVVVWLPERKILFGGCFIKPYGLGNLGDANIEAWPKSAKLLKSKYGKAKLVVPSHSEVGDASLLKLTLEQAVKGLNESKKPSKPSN
UniProt P30969, sequence (whole entry, looked up): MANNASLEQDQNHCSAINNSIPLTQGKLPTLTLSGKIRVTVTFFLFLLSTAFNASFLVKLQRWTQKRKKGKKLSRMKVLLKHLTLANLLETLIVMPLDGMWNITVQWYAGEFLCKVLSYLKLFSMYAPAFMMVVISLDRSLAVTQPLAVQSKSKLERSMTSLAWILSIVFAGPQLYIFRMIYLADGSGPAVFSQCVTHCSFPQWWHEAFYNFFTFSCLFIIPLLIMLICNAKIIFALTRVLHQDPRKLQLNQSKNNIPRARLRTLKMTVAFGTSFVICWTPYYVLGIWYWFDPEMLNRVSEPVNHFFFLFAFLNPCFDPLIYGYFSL
UniProt Q99436, sequence (whole entry, looked up): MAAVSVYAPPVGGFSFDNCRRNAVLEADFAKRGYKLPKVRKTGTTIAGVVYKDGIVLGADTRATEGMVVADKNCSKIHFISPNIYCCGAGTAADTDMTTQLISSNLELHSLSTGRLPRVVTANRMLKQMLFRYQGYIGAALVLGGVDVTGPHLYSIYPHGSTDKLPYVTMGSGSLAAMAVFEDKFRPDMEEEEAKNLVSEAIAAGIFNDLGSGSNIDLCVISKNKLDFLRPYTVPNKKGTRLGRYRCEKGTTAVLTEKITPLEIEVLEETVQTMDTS
UniProt P28907, sequence (whole entry, looked up): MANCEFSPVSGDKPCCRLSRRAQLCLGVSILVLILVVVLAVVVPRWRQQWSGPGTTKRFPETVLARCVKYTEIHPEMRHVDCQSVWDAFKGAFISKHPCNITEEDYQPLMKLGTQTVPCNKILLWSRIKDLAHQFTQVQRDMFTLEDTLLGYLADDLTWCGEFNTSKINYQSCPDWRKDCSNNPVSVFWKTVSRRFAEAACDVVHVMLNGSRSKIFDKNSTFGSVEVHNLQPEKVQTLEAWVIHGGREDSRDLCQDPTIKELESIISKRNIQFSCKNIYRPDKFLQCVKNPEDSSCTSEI

CC1=CC(C)(C)N=C(Nc2nc(C)c3cc(C)cc(C)c3n2)N1
IC50 (ADP-ribosyl cyclase/cyclic ADP-ribose hydrolase 1 (CD38, Homo sapiens, UniProt P28907); hydrolase activity, fluorometric; with: ε-NAD+ substrate): 4 ± 0.48 µM

COc1ccc2oc(-c3cc(-c4cnn(C5CCNCC5)c4)cnc3N)nc2c1
IC50 (JAK2; enzyme activity, inhibitor, TR-FRET): 0.25 µM

CSCC[C@H](NC(=O)[C@@H]1CCCN1C(=O)[C@@H](NC(=O)[C@H](Cc1ccc(O)cc1)NC(=O)[C@@H](N)CC(=O)O)C(C)C)C(=O)N[C@@H](CCC(=O)O)C(=O)N[C@@H](CCC(N)=O)C(=O)N1CCC[C@H]1C(=O)N[C@@H](CCCNC(=N)N)C(=O)O
IC50 (H-2 class I histocompatibility antigen, K-D alpha chain, 29 (H2-K1, Mus musculus, UniProt P01902); binding, competitor, radioligand competition; purified MHC, mutant peptide, with: radiolabeled standard peptide): > 70 µM

CC(=O)NCCN(CCC(=O)NCCN(CCC(=O)NCCN(CCC(=O)NCCC(N)=O)C(=O)[C@@H](N)CCCNC(=N)N)C(=O)[C@@H](N)CCCNC(=N)N)C(=O)[C@@H](N)Cc1ccccc1
IC50 (HIV-1 TAR RNA; Tat/TAR complex displacement, FRET; room temperature, with: 10 nM Tat/TAR complex): 2.7 ± 0.8 µM

C=C1CN(S(=O)(=O)c2ccc(C)cc2)CCCN(Cc2ccccc2)CCCN(S(=O)(=O)c2ccc(C)cc2)C1
IC50 (Inactive tyrosine-protein kinase 7 (PTK7, Homo sapiens, UniProt Q13308); human cells): 2.05 µM

C=C(NC(=O)C(=C)NC(=O)c1csc(C2=NC3c4csc(n4)C4NC(=O)c5csc(n5)C(C(C)(O)C(C)O)NC(=O)C5CSC(=N5)C(=CC)NC(=O)C(C(C)O)NC(=O)c5csc(n5)C3(CC2)NC(=O)C(C(C)CC)NC(=O)C(=C)NC(=O)C(C)NC(=O)C(C(C)CC)NC2C=Cc3c(C(C)O)cc(nc3C2O)C(=O)OC4C)n1)C(N)=O (stereo not shown)
IC50 (Proteasome subunit beta type-7, in 20S proteasome (PSMB7, Homo sapiens, UniProt Q99436); trypsin-like activity, inhibitor; purified 20S proteasome; 15 min preincubation, 37 °C, with: Boc-Leu-Arg-Arg-AMC substrate): 0.24 ± 0.05 µM

CC(=O)NCCN(CC(=O)NCCN(CC(=O)NCCN(CC(=O)NCCC(N)=O)C(=O)[C@@H](N)CCCNC(=N)N)C(=O)[C@@H](N)CCCCN)C(=O)[C@@H](N)Cc1ccccc1
IC50 (HIV-1 TAR RNA; Tat/TAR complex displacement, FRET; room temperature, with: 10 nM Tat/TAR complex): 12.1 ± 0.8 µM

COc1cc(-c2nc3ccc(C(=O)NCCCN4CCN(C5CCCCC5)CC4)cc3n2C2CCC2)cc(OC)c1OC
IC50 (Activin receptor type-1 (ACVR1, Homo sapiens, UniProt Q04771, R206H); binding, NanoBRET; HEK293): 0.85 µM

COc1cc(OC)c2c(c1)C(=O)c1cc3oc(=O)cc(C)c3c(O)c1C2=O
IC50 (mushroom tyrosinase; enzyme activity; with: L-DOPA): 59.95 ± 0.46 µg/mL

Cc1ncccc1-c1c[nH]n(-c2ccccn2)c1=O
IC50 (EGLN2; enzyme activity, inhibitor, europium VBC binding; 10 µM FeSO4, 2 mM ascorbate, with: 20 µM 2-oxoglutarate): 0.76 µM

COC(=O)C[C@H](NC(=O)[C@H](C)NC(=O)[C@@H](NC(=O)OCc1ccccc1)C(C)C)C(=O)CF
IC50 (Caspase-6 (CASP6, Homo sapiens, UniProt P55212); enzyme activity, inhibitor, fluorescence): 0.08 µM

N=C(N)NCCC[C@@H](NC(=O)[C@H](Cc1c[nH]cn1)NC(=O)[C@H](CO)NC(=O)[C@H](Cc1c[nH]c2ccccc12)NC(=O)[C@H](Cc1c[nH]cn1)NC(=O)[C@@H]1CCC(=O)N1)C(=O)N[C@@H](Cc1c[nH]c2ccccc12)C(=O)N[C@@H](Cc1ccc(O)cc1)C(=O)N1CCC[C@H]1C(=O)NCC(N)=O
IC50 (Gonadotropin-releasing hormone receptor (Rattus norvegicus, UniProt P30969); binding, radioligand displacement; WPE-1-NB26-3 expressing Gonadotropin-releasing hormone receptor, whole cells; with: radioiodinated GnRH analogue): 0.0009 ± 3e-05 µM

Cc1cc(NC(=O)c2cccc(-n3cc(NC(=O)Nc4ccccc4Cl)cn3)c2)ccn1
IC50 (Mitogen-activated protein kinase 14 (MAPK14, Homo sapiens, UniProt Q16539); enzyme activity, inhibitor): > 10 µM

CC(C)OC(=O)C(CS)N1C(=O)c2ccc(N(C)C)cc2C1=O (stereo not shown)
IC50 (Metallo-beta-lactamase type 2 (Serratia marcescens, UniProt P52699); enzyme activity, inhibitor; pH 7.0, with: chromacef 25 µM): 0.035 ± 0.006 µM

CN1CCN(C(=O)c2ccc(-c3ccc4c(c3)/C(=C/c3ccc(N5CCNCC5)cc3)C(=O)N4)cc2)CC1
IC50 (FGFR4; enzyme activity, inhibitor): 8.48 µM

CCn1cnc(C[C@H](NC(=O)c2cnccn2)C(=O)N2CCC[C@H]2C(N)=O)c1
IC50 (Thyrotropin-releasing hormone receptor (Mus musculus, UniProt P21761); ligand displacement, radioligand): > 50 µM

CC(C)n1nc(-c2cc(Br)ccc2F)nc2c(=O)n(C)c(=O)nc1-2
IC50 (Trypanothione reductase (TPR, Trypanosoma brucei brucei, UniProt P39051); inhibitor, DTNB-coupled colourimetric; with: substrate at Km): > 50 µM

O=C(c1ccc(I)cc1)N1CCN(c2ccc(F)cc2)CC1
IC50 (SEC14; enzyme activity, inhibitor, radiometric): 0.589 µM

CNC(=O)C1CCN(c2ccccc2NC(=O)c2ccc(-c3ccccc3C)c(C)c2)CC1
IC50 (Ephrin type-A receptor 4 (EPHA4, Homo sapiens, UniProt P54764); target engagement in cells, BRET): 3.86 µM

O=C1/C=C\C(=O)N[C@@H](CC2CCCCC2)C(=O)N[C@@H](Cc2ccccc2)C(=O)N[C@@H](CCCNC(=O)c2cnccn2)C(=O)NCC[C@@H](C(=O)O)N1
IC50 (Proto-oncogene tyrosine-protein kinase LCK (Lck, Mus musculus, UniProt P06240); enzyme activity, inhibitor, absorbance): 2.4 µM

CC(C)C[C@H](NC(=O)[C@H](CC(N)=O)NC(=O)[C@H](CC(C)C)NC(=O)[C@@H](NC(=O)[C@@H](NC(=O)[C@@H]1CCCN1C(=O)[C@H](CCCNC(=N)N)NC(=O)[C@H](CCCCN)NC(=O)[C@@H]1CCCN1)[C@@H](C)O)[C@@H](C)O)C(=O)N[C@@H](Cc1ccccc1)C(N)=O
IC50 (Mitogen-activated protein kinase 14 (Mapk14, Mus musculus, UniProt P47811); enzyme activity, inhibitor, radiometric; pH 7.5): 168 µM

OC[C@@H]1[C@@H](O)[C@H](O)[C@@H](O)[C@H]2O[C@@H]12
IC50 (Beta-glucosidase (GBA2, Homo sapiens, UniProt Q9HCG7); enzyme activity, inhibitor; pH 5.8, with preincubation): > 100 µM

Cn1sc(Nc2c(Cl)ccc3ncccc23)c(C#N)c1=O
IC50 (NAD(+) hydrolase SARM1 (SARM1, Homo sapiens, UniProt Q6SZW1, C649A); enzyme activity, inhibitor): 0.46 µM

NS(=O)(=O)c1ccc(-n2cc(CNc3ccccc3)c(-c3ccc(OCc4ccccc4)cc3)n2)cc1
IC50 (Prostaglandin G/H synthase 1 (PTGS1, Homo sapiens, UniProt P23219); enzyme activity, inhibitor, absorbance): 45.2 µM

COc1cc2ncnc(Nc3ccc(Oc4ccccc4)cc3C)c2cc1OC
IC50 (RAF proto-oncogene serine/threonine-protein kinase (RAF1, Homo sapiens, UniProt P04049, Y340D/Y341D); inhibitor, ATP-biotin probe competition): > 10 µM

C=C(C)C(=O)Nc1ccc(-c2c(-c3ccc(Oc4nccc(C)n4)cc3)c3c(N)ncnc3n2C)cc1
IC50 (FGFR4; Caliper mobility shift; 30 min preincubation, with: 100 µM ATP): 31 µM

O=C(c1ccc(F)c([N+](=O)[O-])c1)N1CCN(c2ccccc2F)CC1
IC50 (SEC14; enzyme activity, inhibitor, radiometric): 36.8 µM

Cc1ccccc1/C=C/C(=O)C(c1ccccc1)c1ccccc1
IC50 (Seed linoleate 13S-lipoxygenase-1 (Glycine max, UniProt P08170); enzyme activity, inhibitor, absorbance): 95.2 µM

OC[C@H]1[C@@H](O)[C@@H](O)CN1CCc1ccccc1
IC50 (Alpha-mannosidase (Canavalia ensiformis, UniProt C0HJB3); enzyme activity, inhibitor, absorbance; pH 5): 2700 µM

C=CCNCC(=O)N1CCc2sccc2C1COc1ccc(Cl)cc1 (stereo not shown)
IC50 (Protein-cysteine N-palmitoyltransferase HHAT (HHAT, Homo sapiens, UniProt Q5VTY9); enzyme activity, inhibitor): 0.18 µM

COc1cc(O)c2c(=O)cc(-c3ccccc3)oc2c1
IC50 (Dipeptidyl peptidase 4 (DPP4, Sus scrofa, UniProt P22411); enzyme activity, inhibitor, absorbance): > 186 µM

CN(C)C(=O)c1cc2nc(-c3cc(-c4cnn(C5CCNCC5)c4)cnc3N)oc2cc1O
IC50 (JAK2; enzyme activity, inhibitor, TR-FRET): 5.5 µM

CCn1c(-c2cc(NC(=O)c3cnccn3)n[nH]2)cc2ccccc21
IC50 (Casein kinase II subunit alpha (CSNK2A1, Homo sapiens, UniProt P68400); enzyme activity, inhibitor, ADP detection): 49 µM

O=c1c(-c2cccnc2)c[nH]n1-c1cnccn1
IC50 (EGLN2; enzyme activity, inhibitor, europium VBC binding; 10 µM FeSO4, 2 mM ascorbate, with: 20 µM 2-oxoglutarate): 0.93 µM

Repeated from above:
Cc1cc(NC(=O)c2cccc(-n3cc(NC(=O)Nc4ccccc4Cl)cn3)c2)ccn1
IC50 (Mitogen-activated protein kinase 14 (MAPK14, Homo sapiens, UniProt Q16539); enzyme activity, inhibitor): > 10 µM

CC(C)OC(=O)C(CS)N1C(=O)c2ccc(N(C)C)cc2C1=O (stereo not shown)
IC50 (Metallo-beta-lactamase type 2 (Serratia marcescens, UniProt P52699); enzyme activity, inhibitor; pH 7.0, with: chromacef 25 µM): 0.035 ± 0.006 µM

CN1CCN(C(=O)c2ccc(-c3ccc4c(c3)/C(=C/c3ccc(N5CCNCC5)cc3)C(=O)N4)cc2)CC1
IC50 (FGFR4; enzyme activity, inhibitor): 8.48 µM

CCn1cnc(C[C@H](NC(=O)c2cnccn2)C(=O)N2CCC[C@H]2C(N)=O)c1
IC50 (Thyrotropin-releasing hormone receptor (Mus musculus, UniProt P21761); ligand displacement, radioligand): > 50 µM
